Measured values collected from several papers.
Each numbered part is a random draw from the data of one study; scales do not carry over between parts. Substitutions count along the parent as printed.

Block 1 — technique: protein-binding microarray; form: double-stranded DNA, one strand shown; matrix: in vitro; concentration: 2200 nM top; notes: 60-bp whole probe; with: salmon DNA 0.4 mg/ml; reference: random background probes; reading: higher = stronger binding; all sequences stand within: GCCTAGCAC … GTCTTGATTCGCTTGACGCTGCTG
Target: Interferon regulatory factor 7, full length, phosphomimetic (IRF7, Homo sapiens, UniProt Q92985, residues 1-503, S471D/S472D/S475D/S476D/S477D/S483D/S484D/S487D)
Residues (chain): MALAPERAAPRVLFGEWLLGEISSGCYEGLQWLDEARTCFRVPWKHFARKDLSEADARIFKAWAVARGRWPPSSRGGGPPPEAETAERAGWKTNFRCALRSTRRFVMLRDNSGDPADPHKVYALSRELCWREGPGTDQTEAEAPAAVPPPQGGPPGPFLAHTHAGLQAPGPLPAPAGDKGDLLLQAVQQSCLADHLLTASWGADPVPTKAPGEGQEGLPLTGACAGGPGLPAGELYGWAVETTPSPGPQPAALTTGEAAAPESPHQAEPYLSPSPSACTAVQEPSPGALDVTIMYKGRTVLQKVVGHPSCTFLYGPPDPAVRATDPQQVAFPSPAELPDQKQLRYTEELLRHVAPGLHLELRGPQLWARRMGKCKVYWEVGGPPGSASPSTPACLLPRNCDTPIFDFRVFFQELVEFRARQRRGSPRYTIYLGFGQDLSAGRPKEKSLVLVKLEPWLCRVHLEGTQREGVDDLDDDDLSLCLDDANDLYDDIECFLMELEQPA
Under “fitted relative affinity”, `GACGGACTGGACAGTGGGGACGTGCTA` is recorded as -0.805 z-score.
For `GACGATTTCAGATTCGAGACGTGCTAG`, “fitted relative affinity” read 1.8 z-score.
`TTAGGACTGGACTTTCGGTAAGTGCTA` — result for “fitted relative affinity”: 0.942 z-score.
`GACGCTATCAGTTTCGAGACGTGCTAG` — result for “fitted relative affinity”: 3.48 z-score.
For `TTAGATATCAGAATCGATTAGTGCTAG`, “fitted relative affinity” read -0.12 z-score.
For `CTTTCTCTCTGTGACACAGAGTGCTAG`, “fitted relative affinity” read 2.39 z-score.
`GACGGTCTCGGTCGCGGGACGTGCTAG`: “fitted relative affinity” -0.477 z-score.
`GCCGGTTTCGACTTTCGGGACGTGCTA`: “fitted relative affinity” 10.1 z-score.
`GACGGTCTCGCTATCGGGACGTGCTAG`: “fitted relative affinity” 0.00631 z-score.
`TTAGATTTCGGGACAGGATTAGTGCTA`: “fitted relative affinity” 1.08 z-score.
`GACGGACTGGACACTGTGGACGTGCTA`: “fitted relative affinity” -0.649 z-score.
`TTAGATATCGGGTTTCGATAAGTGCTA`: “fitted relative affinity” 1.03 z-score.
Under “fitted relative affinity”, `TTAGGTATCGGGTATCGGTTCGTGCTA` is recorded as 1.16 z-score.
`TATTGTGCAATTAGAGCCCTGTGCTAG`: “fitted relative affinity” -0.113 z-score.
`GACGGACTGGACTTTCGGTACGTGCTA`: “fitted relative affinity” 3.18 z-score.
`CTAATTCTCTTTTCACTTTCGTGCTAG` — result for “fitted relative affinity”: 5.22 z-score.
`TTAGCACTGGGGTATCGGTTAGTGCTA` — result for “fitted relative affinity”: -0.0536 z-score.
For `GACGAACTGAGTATCTAGACGTGCTAG`, “fitted relative affinity” read -0.353 z-score.
`GACGTTATCGGGTATCGAGACGTGCTA` — result for “fitted relative affinity”: 0.439 z-score.

Block 2 — technique: protein binding microarray; form: double-stranded DNA, one strand shown; matrix: in vitro; concentration: not given; reference: not given; reading: higher = stronger binding
Target: Histone acetyltransferase KAT6A, winged helix 2, GST fusion (KAT6A, Homo sapiens, UniProt Q92794, residues 85-181)
Notes: 8-mer, flanks averaged, mean of 2 arrays, mostly near background
Target sequence (chain): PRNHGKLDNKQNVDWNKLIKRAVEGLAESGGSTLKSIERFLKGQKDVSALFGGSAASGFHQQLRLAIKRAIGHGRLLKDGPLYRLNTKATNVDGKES
The E-score of `GGCTTAAC` is reported as -0.0482.
The E-score of `CGCGATGC` is reported as 0.148.
`CGGTTCTA` has an E-score of 0.0328.
With `ACGACTAA` the E-score was -0.0798.
The E-score of `AATCGCTC` is reported as -0.0364.
With `ACACGCCA` the E-score was 0.132.
With `AGCCTAAG` the E-score was -0.0779.
With `ACACCTAG` the E-score was -0.123.
For `CAACCATA`, the E-score was 0.03.
`GATTTGCA` gave an E-score of 0.0371.
`GAAAATGC` gave an E-score of 0.0292.
The E-score of `CCGCGTGA` is reported as 0.102.
`CACGAGCG` gave an E-score of -0.0651.
`CGATACTC` gave an E-score of -0.00325.
The E-score of `AGCGCGCA` is reported as 0.193.
With `ACAGCCGC` the E-score was 0.0771.
With `GTCGGTTA` the E-score was -0.109.
For `ACTTAAGG`, the E-score was -0.0741.
For `CCTAACGA`, the E-score was -0.042.
The E-score of `CGGATAGA` is reported as 0.142.
The E-score of `GATAGCCC` is reported as -0.0119.
For `CCAAACGC`, the E-score was -0.0114.
`GGACATGA` gave an E-score of -0.0988.
With `AGACTACG` the E-score was -0.141.
`CCTAATGA` gave an E-score of -0.0866.

Block 3 — target: MAFG, bZIP domain (human); technique: DHFR protein complementation; matrix: yeast; reference: wild-type JUN-FOS pair; reading: higher = stronger binding
Notes: single substitutions, most at no-binding floor
Starting sequence: JUN, bZIP domain (human); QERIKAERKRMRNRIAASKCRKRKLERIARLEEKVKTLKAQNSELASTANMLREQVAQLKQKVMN; partner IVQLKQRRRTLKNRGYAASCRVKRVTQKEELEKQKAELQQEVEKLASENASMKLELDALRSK
The binding fitness of `Q41P` is reported as -1.47 natural log.
`K36I` has a binding fitness of -1.38 natural log.
The binding fitness of `N42I` is reported as -1.39 natural log.
`V35F` has a binding fitness of -1.59 natural log.
The binding fitness of `L38G` is reported as -1.5 natural log.
With `R53A` the binding fitness was -1.49 natural log.
The binding fitness of `M51A` is reported as -1.29 natural log.
For `I28M`, the binding fitness was -1.55 natural log.
`V35K` gave a binding fitness of -1.34 natural log.
For `A46L`, the binding fitness was -1.4 natural log.
With `R53I` the binding fitness was -1.54 natural log.
For `L52Y`, the binding fitness was -1.5 natural log.
For `E54C`, the binding fitness was -1.54 natural log.
`L31F` gave a binding fitness of -1.55 natural log.
`L45C` gave a binding fitness of -1.45 natural log.
For `A40S`, the binding fitness was -1.49 natural log.
`L59R` gave a binding fitness of -1.38 natural log.
For `T37P`, the binding fitness was -1.47 natural log.
The binding fitness of `L45R` is reported as -1.37 natural log.
The binding fitness of `K39M` is reported as -1.44 natural log.

Block 4 — target: CCNA1, cyclin fold, Cln2 fusion (human); technique: yeast growth competition, sequencing; matrix: yeast; notes: weak parent motif; reference: not given; reading: higher = stronger binding
Starting sequence: BRCA2 docking peptide (human); PSIKRNLLNEFDR; partner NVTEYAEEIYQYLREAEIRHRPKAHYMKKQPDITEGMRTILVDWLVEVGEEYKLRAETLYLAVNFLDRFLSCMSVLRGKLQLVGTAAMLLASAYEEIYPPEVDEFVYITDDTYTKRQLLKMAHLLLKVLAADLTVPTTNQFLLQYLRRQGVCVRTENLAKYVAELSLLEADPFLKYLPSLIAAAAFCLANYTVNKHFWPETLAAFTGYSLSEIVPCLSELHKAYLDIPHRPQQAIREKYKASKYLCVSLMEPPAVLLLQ
`S2G` — result for “normalised enrichment score”: 0.578.
For `I3E`, “normalised enrichment score” read 0.158.
Under “normalised enrichment score”, `L7V` is recorded as -0.227.
Under “normalised enrichment score”, `I3Q` is recorded as 0.0762.
`P1W`: “normalised enrichment score” 0.658.
`N9S` — result for “normalised enrichment score”: 0.542.
Under “normalised enrichment score”, `I3T` is recorded as 0.107.
`P1R` — result for “normalised enrichment score”: 0.596.
`F11K`: “normalised enrichment score” 0.13.
For `N6L`, “normalised enrichment score” read 0.167.
Under “normalised enrichment score”, `I3M` is recorded as 0.228.
Under “normalised enrichment score”, `E10L` is recorded as 0.286.
Under “normalised enrichment score”, `E10G` is recorded as 0.203.
Under “normalised enrichment score”, `I3R` is recorded as 0.229.
Under “normalised enrichment score”, `N9K` is recorded as 0.784.
`N9D` — result for “normalised enrichment score”: 0.53.
`S2M` — result for “normalised enrichment score”: 0.278.
Under “normalised enrichment score”, `E10P` is recorded as 0.196.

Block 5 — technique: RNA Bind-n-Seq; form: RNA; matrix: in vitro; concentration: 365 nM; reference: no-protein control; reading: higher = stronger binding
Target: RNA binding protein fox-1 homolog 2, RRM domain, GST-SBP tag (RBFOX2, Homo sapiens, UniProt O43251-10, residues 100-194)
Notes: natural RNA segment, single round, ends assumed
All sequences stand within: GGGAGUUCUACAGUCCGACGAUC … UGGAAUUCUCGGGUGCCAA
Construct (chain): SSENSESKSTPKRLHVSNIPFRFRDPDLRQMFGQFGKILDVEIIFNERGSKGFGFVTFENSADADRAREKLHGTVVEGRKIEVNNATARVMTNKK
Under “RBNS enrichment (R)”, `AUUUUAUAGCUUUAAUUUGUGUUAUUUCUUUAUUGACGGGAAGAGGUACAUCUUUUUUUCCUUACUGAAAACAAAUAUGGAUUAAUUGCCUCAAAUUUGUAUAAGUGAUU` is recorded as 0.288.
For `AGAAACCGUUACAAUUUCCUGUUGCUGUACAGCCUCUUCUGAACUCUCUUCUCUCUUUGGUGUUCAUAGAGACAUUUCCAAUGGCAUUGCUUGAUUCAAAACCAAGGAAA`, “RBNS enrichment (R)” read 0.336.
`CAGUGCUCCCUCACAUGUCAGUACCUUCAAACUAGGGCCAAGCCCAGCACUGCUUGAGGAAAACAAGCAUUCACAACUUGUUUUUGGUUUUUAAAACCCAGUCCACAAAA` — result for “RBNS enrichment (R)”: 0.638.
`AGCUUCAAUAAUAUAGAGAUCUAACAUAGUCAGUCCUCAGGCCCCCUAAAGAAACAAGCAAGAAAGUGAGGGCCAUCACUAGGGUUGGCUUUGGGGAGGGGAAAACUAAG` — result for “RBNS enrichment (R)”: 1.28.
For `UUACUACAUAUGAAUCUGAUAUUCUUAAUAAAGUAUUACUUUAAAUUUUCCAGCAGUAACAUUUAGAGAUUCUUUAUAGAAAUGUCCUCUGCACCAACAGUUUAUGGCUG`, “RBNS enrichment (R)” read 0.571.
Under “RBNS enrichment (R)”, `CCACUGAUUGCCGCCUUGUUCUCCCUGACUGAUUGCUGCCUUGCUGGCUAGCCCAAGGGCCCUGCCAUGUUCUCCCCACAUCCGUAAAUAAACUUCCUUUCCCACACUGU` is recorded as 3.2.
`UAAGAAAACUCGACUUGUUUUUUGUUCAUUUUAAGUGUGUGGUACUAAAAAGACAUGUUAGACUUUUUUUAAAAAAGCACUUAUGUUUUGAAAAUAGAAUAAAUAAUAAG` — result for “RBNS enrichment (R)”: 0.684.
Under “RBNS enrichment (R)”, `CUUUGGAACACAGGGUAUGCCUCUGGUUAAUAAGCUAAGCAAUAAAAUUACACGAAAUAUAAAUGUUAAUGCUUUGUUUUAAAAAGCUAAGCCAGCAUUUACUAAGUUGG` is recorded as 0.297.

A few entries again (block 1):
Under “fitted relative affinity”, `GACGGACTGGACAGTGGGGACGTGCTA` is recorded as -0.805 z-score.
For `GACGATTTCAGATTCGAGACGTGCTAG`, “fitted relative affinity” read 1.8 z-score.
`TTAGGACTGGACTTTCGGTAAGTGCTA` — result for “fitted relative affinity”: 0.942 z-score.
`GACGCTATCAGTTTCGAGACGTGCTAG` — result for “fitted relative affinity”: 3.48 z-score.
For `TTAGATATCAGAATCGATTAGTGCTAG`, “fitted relative affinity” read -0.12 z-score.
For `CTTTCTCTCTGTGACACAGAGTGCTAG`, “fitted relative affinity” read 2.39 z-score.
`GACGGTCTCGGTCGCGGGACGTGCTAG`: “fitted relative affinity” -0.477 z-score.
`GCCGGTTTCGACTTTCGGGACGTGCTA`: “fitted relative affinity” 10.1 z-score.
`GACGGTCTCGCTATCGGGACGTGCTAG`: “fitted relative affinity” 0.00631 z-score.
`TTAGATTTCGGGACAGGATTAGTGCTA`: “fitted relative affinity” 1.08 z-score.
`GACGGACTGGACACTGTGGACGTGCTA`: “fitted relative affinity” -0.649 z-score.
`TTAGATATCGGGTTTCGATAAGTGCTA`: “fitted relative affinity” 1.03 z-score.
Under “fitted relative affinity”, `TTAGGTATCGGGTATCGGTTCGTGCTA` is recorded as 1.16 z-score.
`TATTGTGCAATTAGAGCCCTGTGCTAG`: “fitted relative affinity” -0.113 z-score.
